# Results collected from several papers.
# Each line is one published result; not all experiments were run side by side. Values joined by “and” are separate records of one study, mostly repeats; a detail may differ. Numbers after ± are the reported error.
# Dipeptidyl peptidase 8: Dipeptidyl peptidase 8 (Homo sapiens, UniProt Q6V1X1)
# MAPK8: Mitogen-activated protein kinase 8 (MAPK8, Homo sapiens, UniProt P45983)
Compound,tested on,test,test system,conditions,scale,endpoint,value
CC[C@H](C)[C@@H]1NC(=O)[C@H](Cc2ccc(O)cc2)NC(=O)[C@H](Cc2ccccc2)NC(=O)[C@H](C(C)C)NC(=O)[C@H](Cc2ccccc2)NC(=O)CSC[C@@H](C(=O)N[C@@H](Cc2c[nH]cn2)C(N)=O)NC(=O)[C@H](CC(N)=O)NC(=O)[C@H](Cc2c[nH]c3ccccc23)NC1=O,"STING1 (Homo sapiens, UniProt Q86WV6, H232R)","thermal stability, DSF",,200 µM,,ΔTm,9.34 °C
CC(C)[C@@H]1NC(=O)[C@H](Cc2ccccc2)NC(=O)CSC[C@@H](C(N)=O)NC(=O)[C@H](CCC(=O)O)NC(=O)[C@H](CO)NC(=O)[C@H](Cc2c[nH]c3cccc(Cl)c23)NC(=O)[C@H](C2CCCCC2)NC(=O)[C@H](C(C)C)NC(=O)[C@H](Cc2ccc(O)cc2)NC(=O)[C@H](CC(=O)O)NC(=O)[C@H](Cc2c[nH]c3ccccc23)NC(=O)[C@H](Cc2ccc(N)nc2)NC(=O)[C@H](Cc2c[nH]c3ccc(Cl)cc23)NC(=O)[C@H](CCC(=O)O)NC1=O,"Interleukin-1 receptor-like 2 (IL1RL2, Homo sapiens, UniProt Q9HB29)","reporter gene (SEAP), inhibitor, HEK-Blue IL-36R reporter",HEK-Blue IL-36R cells,"33.33 µM, 6 h, with: IL-36γ 10 ng/mL",,remaining activity,65.4%
Cn1cc(-c2cc(N3CCCCS3(=O)=O)ccc2N[C@H]2CC[C@H](C)CC2)c2cc[nH]c2c1=O (stereo in doubt),"Bromodomain-containing protein 3, BD2 (BRD3, Homo sapiens, UniProt Q15059)","binding, competition with immobilised ligand",,1 µM,,remaining binding,0.5%
O=C(NC[C@@H](Cc1ccc(F)cc1)N1CCC(O)(C(F)(F)F)CC1)C1(c2ccc(Cl)cc2)CCCC1,"TRPA1 (Homo sapiens, UniProt O75762, V875M)","calcium influx, agonist",,,reference: V875M mutant over wild type,EC50 fold change,2.1
CCCCCC=CC=C1C(=O)C=CC1CC=CCCCC(=O)O (stereo not shown),"Protein phosphatase 1G (Homo sapiens, UniProt O15355)","competitive isoTOP-ABPP, refers to: PPM1G cysteine peptide",Ramos soluble proteome,"100 µM, with: iodoacetamide probe","reference: DMSO over compound-treated, higher = stronger cysteine blockade",isoTOP-ABPP competition ratio,2.2
CCCC1(CC)C(=O)N(c2cccc(CN3CCN(Cc4ccc(Br)cc4)CC3)c2)C1=O,Dipeptidyl peptidase 8,inhibitor,,with: GP-AMC substrate,reference: Ki' DPP9 over Ki' DPP8,selectivity ratio,17
CC[C@H](C)[C@@H](C(=O)N[C@@H](CC(C)C)C(=O)N[C@@H](CO)C(=O)N[C@@H](CO)C(=O)N[C@H](C(=O)N[C@@H](CC(N)=O)C(=O)N[C@H](C(=O)NCC(=O)N[C@@H](CO)C(=O)N[C@@H](CC(N)=O)C(=O)N[C@H](C(=O)N1CCC[C@H]1C(N)=O)[C@@H](C)O)C(C)C)[C@@H](C)O)N(C)C(=O)[C@H](C)NC(=O)CN(C)C(=O)[C@H](Cc1ccccc1)NC(=O)[C@H](CC(N)=O)NC(=O)[C@H](CC(N)=O)NC(=O)[C@H](CO)NC(=O)[C@H](CO)NC(=O)[C@H](CCCNC(=N)N)NC(=O)[C@H](Cc1c[nH]cn1)NC(=O)[C@H](CC(C)C)NC(=O)[C@H](Cc1ccccc1)NC(=O)[C@H](CCC(=O)O)NC(=O)[C@H](C)NC(=O)[C@H](CC(C)C)NC(=O)[C@H](CCCNC(=N)N)NC(=O)[C@H](CCC(N)=O)NC(=O)[C@@H](NC(=O)[C@H](C)NC(=O)[C@@H]1CSSC[C@H](NC(=O)[C@H](CCCNC(=N)N)NC(=O)CC[C@H](NC(=O)CCCCCCCCCCCCCCCCCCC(=O)O)C(=O)O)C(=O)N[C@@H](CC(N)=O)C(=O)N[C@@H]([C@@H](C)O)C(=O)N[C@@H](C)C(=O)N[C@@H]([C@@H](C)O)C(=O)N1)[C@@H](C)O,"Amylin receptor AMY3; CALCR/RAMP3 (Homo sapiens, UniProt O60896+P30988)","cAMP accumulation, agonist",COS-7,,reference: over native Tyr37 analogue,potency increase,3 to 4 fold
CSc1cc(C)[nH]c(=O)c1CNC(=O)c1c(C)n(C(C)C2CCC(NC3(C)COC3)CC2)c2ccccc12 (stereo not shown),"EZH2 (Homo sapiens, UniProt Q15910)","binding, TR-FRET",,with: H3K27me3 activating peptide,,residence time,26400 min
COC1CN([C@H]2CC[C@H]([C@@]3(C)Oc4c(Cl)cc(C(=O)NCc5c(SC)cc(C)[nH]c5=O)c(C)c4O3)CC2)C1,,"RNA-seq, refers to: MMP8","human, whole blood","dose not given, 24 h",reference: pretreatment baseline,log2 fold change,2.26
CN(C)c1ccc(-n2cc(COC(=O)[C@]3(C)C=C(C(=O)OC(C)(C)C)C(=O)CC3)nn2)cc1,MAPK8,"D-peptide binding, inhibitor, FP peptide displacement",,12.5 µM,lower is stronger displacement,fraction bound,0.649
CC(=O)N[C@H]1[C@H]([C@H](O)[C@H](O)CNC(=O)c2ccc(-c3ccccc3)cc2)O[C@@](OCc2cn(CC(O)Cn3c([N+](=O)[O-])cnc3C)nn2)(C(=O)O)C[C@@H]1O (stereo partly shown),"CD22 (Homo sapiens, UniProt P20273)",isothermal titration calorimetry,,,,-TΔS,1.09 ± 0.28 kcal/mol
O=[N+]([O-])c1cc(Br)cc([N+](=O)[O-])c1NS(=O)(=O)c1ccc(Br)cc1,"PYL10, with HAB1 (Arabidopsis thaliana, UniProt Q8H1R0)",antagonist,,"80 µM, with: ABA 5 µM",higher = more HAB1 activity,HAB1 phosphatase activity,0.109 a.u. and 0.099 a.u. and 0.088 a.u.
O=C1c2sc(-c3ccc(N4CCC(F)C4)nc3F)nc2CCN1c1cccnc1 (stereo not shown),"TAR DNA-binding protein 43, aggregated (TARDBP, Homo sapiens, UniProt Q13148)",radioligand binding,"human, FTLD-TDP type B extract",with: radioligand 1.8 nM,,specific binding,0.207 nM and 0.194 nM
CCC1(CC)C(=O)N(c2cccc(CN3CCN(Cc4ccc(C)c5ccccc45)CC3)c2)C1=O.O=C(O)C(F)(F)F,Dipeptidyl peptidase 8,"enzyme activity, inhibitor",,5 µM,,activity vs control,12%
CCCCCC(O)/C=C/C=O (stereo not shown),"GSR (Homo sapiens, UniProt P00390)",acylphosphate-ATP probe SILAC-ABPP,ZAK-transfected HEK293T,"100 µM, with: acylphosphate-ATP probe",reference: DMSO over compound-treated,probe labelling ratio,0.66
O=C(c1ccccc1Cl)N1CCN(CC(OCc2ccc3ccccc3c2)c2ccc(Cl)cc2Cl)CC1 (stereo not shown),"ULK1 (Homo sapiens, UniProt O75385)","enzyme activity, inhibitor, ADP detection",,0.1 µM,,activity vs control,102%
COC(=O)[C@@]1(C)C=C(C(=O)Nc2cccc(C(=O)Nc3ccc(Nc4nccc(-c5cccnc5)n4)c(C)c3)c2)C(=O)CC1,MAPK8,"enzyme activity, inhibitor",,"0.006774 µM, 0 h, unit not given, with: GSH 10 mM pre-incubation",reference: vehicle,remaining activity,0.82
CC(C)Oc1cc(Cl)ccc1CNc1cc(-c2ccccc2)nc2ncnn12,"GPR3 (Homo sapiens, UniProt P46089)",cAMP reporter,human cells,1 µM,higher is more cAMP,cAMP luminescence,7200 a.u. and 4160 a.u. and 5930 a.u. and 9810 a.u. and 8830 a.u. and 4550 a.u. and 6870 a.u. and 3630 a.u.
CC(C=CC=C(C)C=CC1=C(C)CCCC1(C)C)=CC=O,"Rhodopsin (RHO, Homo sapiens, UniProt P08100, T17M)","immunostaining, refers to: opsin",COS-7 transfected,"5.00 µM, unit not given",reference: surface over total stained cells,plasma membrane localization,0.38
CCCCCCCC/C=C\CCCCCCCC(=O)OCC(O)COP(=O)(O)O (stereo not shown),"LPAR1 (Homo sapiens, UniProt Q92633, W210A)","Gi activation, agonist, NanoBiT G-protein dissociation",HEK293T,"W210A mutant, unit not given",reference: wild type,change in Emax,0.704
COC(=O)[C@@]1(Cc2ccccc2)C=C(C(=O)OC(C)(C)C)C(=O)CC1,"MAPK14 (Homo sapiens, UniProt Q16539, C162A)","peptide binding, fluorescence polarization",,1000 µM,,fraction bound,0.0385
C[C@@H]1C[C@H](Nc2ccccc2)c2cc(F)ccc2N1C(=O)c1ccc(C(F)(F)F)cc1,"Ecdysone receptor (Aedes albopictus, UniProt Q9U3Y4)","ligand binding, inhibitor",intact cells,with: [3H]ponasterone A,direction not given,pIC50 Z-score,0.03
COc1ccccc1-c1ccncc1C(=O)Nc1nnc(OCc2ccc(Cl)cc2)s1,"Bifunctional 3'-5' exonuclease/ATP-dependent helicase WRN, residues 500-946 (WRN, Homo sapiens, UniProt Q14191)","ATPase activity, ADP-Glo",,0.015 µM,reference: 0 µM cpd,remaining activity,94%
C#CC[C@H](NC(=O)c1ccc(C(=O)c2ccccc2)cc1)C(=O)NCCCCCC(=O)N[C@@H](CCCCNC(=O)CSCCNC(=O)CCNC(=O)[C@H](O)C(C)(C)COP(=O)(O)OP(=O)(O)OC[C@H]1O[C@@H](n2cnc3c(N)ncnc32)[C@H](O)[C@@H]1OP(=O)(O)O)C(N)=O,"Elongation factor 2 (EEF2, Homo sapiens, UniProt P13639)",affinity enrichment LC-MS/MS,"HEK293 cell extract, PCAF transfected",,reference: 1 over empty vector,enrichment ratio,2.2
CCOC(=O)C(CC)(CCCSCCOCCNC(=O)OC(C)(C)C)NC(=O)c1ccc(C2CC2)c(Cc2ccc(F)cc2)n1 (stereo not shown),"Cnr2 (Mus musculus, UniProt P47936)","cAMP, agonist",,,,Emax,90%
COc1cc(C2C(NC(=O)c3ccc(NC(=O)OC(C)(C)C)cc3)(C(=O)O)C(c3ccc(OC(=O)c4cccs4)c(OC)c3)C2(NC(=O)c2ccc(NC(=O)OC(C)(C)C)cc2)C(=O)O)ccc1OC(=O)c1cccs1 (stereo not shown),"GLP1R (Homo sapiens, UniProt P43220, C226A)","cAMP accumulation, agonist",,receptor mutant,reference: wild type,Emax,3.73 ± 2.46%
C=C1CC2(C(=O)OC)C=C(C(=O)OC(C)(C)C)C(=O)C1C2 (stereo not shown),MAPK8,"D-peptide binding, inhibitor, FP peptide displacement",,31.25 µM,lower is stronger displacement,fraction bound,0.686
O=C(O)C1OC(OC2C(C(=O)O)OC(OC3C(C(=O)O)OC(OC4C(C(=O)O)OC(O)C(O)C4O)C(O)C3O)C(O)C2O)C(O)C(O)C1O (stereo not shown),"Beta-lactoglobulin (LGB, Bos taurus, UniProt P02754, A134V/G80D)",isothermal titration calorimetry,,"concentration not given, pH 4.00, 37 °C, 50 mM KH2PO4",ligand per protein,binding stoichiometry,4

# A few entries again:
Compound,tested on,test,test system,conditions,scale,endpoint,value
O=C(NC[C@@H](Cc1ccc(F)cc1)N1CCC(O)(C(F)(F)F)CC1)C1(c2ccc(Cl)cc2)CCCC1,"TRPA1 (Homo sapiens, UniProt O75762, V875M)","calcium influx, agonist",,,reference: V875M mutant over wild type,EC50 fold change,2.1
CCCCCC=CC=C1C(=O)C=CC1CC=CCCCC(=O)O (stereo not shown),"Protein phosphatase 1G (Homo sapiens, UniProt O15355)","competitive isoTOP-ABPP, refers to: PPM1G cysteine peptide",Ramos soluble proteome,"100 µM, with: iodoacetamide probe","reference: DMSO over compound-treated, higher = stronger cysteine blockade",isoTOP-ABPP competition ratio,2.2
CCCC1(CC)C(=O)N(c2cccc(CN3CCN(Cc4ccc(Br)cc4)CC3)c2)C1=O,Dipeptidyl peptidase 8,inhibitor,,with: GP-AMC substrate,reference: Ki' DPP9 over Ki' DPP8,selectivity ratio,17
CC[C@H](C)[C@@H](C(=O)N[C@@H](CC(C)C)C(=O)N[C@@H](CO)C(=O)N[C@@H](CO)C(=O)N[C@H](C(=O)N[C@@H](CC(N)=O)C(=O)N[C@H](C(=O)NCC(=O)N[C@@H](CO)C(=O)N[C@@H](CC(N)=O)C(=O)N[C@H](C(=O)N1CCC[C@H]1C(N)=O)[C@@H](C)O)C(C)C)[C@@H](C)O)N(C)C(=O)[C@H](C)NC(=O)CN(C)C(=O)[C@H](Cc1ccccc1)NC(=O)[C@H](CC(N)=O)NC(=O)[C@H](CC(N)=O)NC(=O)[C@H](CO)NC(=O)[C@H](CO)NC(=O)[C@H](CCCNC(=N)N)NC(=O)[C@H](Cc1c[nH]cn1)NC(=O)[C@H](CC(C)C)NC(=O)[C@H](Cc1ccccc1)NC(=O)[C@H](CCC(=O)O)NC(=O)[C@H](C)NC(=O)[C@H](CC(C)C)NC(=O)[C@H](CCCNC(=N)N)NC(=O)[C@H](CCC(N)=O)NC(=O)[C@@H](NC(=O)[C@H](C)NC(=O)[C@@H]1CSSC[C@H](NC(=O)[C@H](CCCNC(=N)N)NC(=O)CC[C@H](NC(=O)CCCCCCCCCCCCCCCCCCC(=O)O)C(=O)O)C(=O)N[C@@H](CC(N)=O)C(=O)N[C@@H]([C@@H](C)O)C(=O)N[C@@H](C)C(=O)N[C@@H]([C@@H](C)O)C(=O)N1)[C@@H](C)O,"Amylin receptor AMY3; CALCR/RAMP3 (Homo sapiens, UniProt O60896+P30988)","cAMP accumulation, agonist",COS-7,,reference: over native Tyr37 analogue,potency increase,3 to 4 fold
